Published values collected from several papers.
Protocols differ between the studies behind these lines. ± gives the spread as reported.

Compound | assay | system | conditions | tissue uptake
CC[C@H](C)[C@H](NC(=O)[C@H](CCCNC(=N)N)NC(=O)[C@H](CCCCN)NC(=O)[C@H](Cc1ccc(O)cc1)NC(=O)[C@H](CC(=O)O)NC(=O)[C@H](C)NC(=O)CNC(=O)CCOCCOCCOCCNC(=O)CN1CCN(CC(=O)O)CCN(CC(=O)O)CCN(CC(=O)O)CC1)C(=O)N[C@H](C(=O)N[C@@H](CC(C)C)C(=O)N[C@@H](CCCCN)C(=O)N[C@H](C(=O)N[C@@H](CC(N)=O)C(N)=O)C(C)C)[C@@H](C)O [copper-64 labelled] | ex vivo gamma counting | C57BL/6J male mice, B16-F10 tumour, spleen | intravenous, 1.85 MBq, 20 min | 2.46 ± 1.08 %ID/g
CC[C@H](C)[C@H](NC(=O)[C@H](CCCCN)NC(=O)CNC(=O)[C@H](CC(C)C)NC(=O)[C@H](Cc1ccccc1)NC(=O)[C@H](CCCCN)NC(=O)[C@H](CO)NC(=O)[C@H](Cc1ccccc1)NC(=O)[C@H](Cc1c[nH]c2ccccc12)NC(=O)[C@H](CCC(N)=O)NC(=O)[C@@H](NC(=O)[C@H](Cc1ccccc1)NC(=O)CCCCCNC(=O)CN1CCN(CC(=O)O)CCN(CC(=O)O)CCN(CC(=O)O)CC1)C(C)C)C(=O)N[C@@H](CCC(=O)O)C(=O)N1CCC[C@H]1C(=O)N[C@@H](CC(=O)O)C(=O)N[C@H](C(=O)N[C@@H](CO)C(=O)N[C@@H](CCC(N)=O)C(=O)N[C@H](C(=O)N[C@@H](CCC(N)=O)C(=O)N[C@@H](CC(=O)O)C(=O)N1CCC[C@H]1C(=O)N[C@@H](CC(N)=O)C(=O)N[C@@H](CC(=O)O)C(=O)N[C@@H](CCC(N)=O)C(=O)N[C@@H](Cc1ccc(O)cc1)C(=O)N[C@@H](CCC(=O)O)C(=O)N1CCC[C@H]1C(=O)N[C@@H](Cc1ccccc1)C(=O)O)C(C)C)C(C)C [copper-64 labelled] |  | GZMB-/- mice, CT26 tumour-bearing, liver | 2 h, vehicle-treated | 8.12 ± 1.2 %ID/g
CSCC[C@H](NC(=O)CNC(=O)[C@H](CCCCN)NC(=O)[C@H](CC(C)C)NC(=O)[C@@H]1CCCN1C(=O)[C@H](CO)NC(=O)[C@H](Cc1c[nH]cn1)NC(=O)[C@H](Cc1c[nH]c2ccccc12)NC(=O)[C@H](CCCNC(=N)N)NC(=O)[C@H](CC(C)C)NC(=O)[C@H](CCCNC(=N)N)NC(=O)[C@H](Cc1c[nH]c2ccccc12)NC(=O)[C@H](CS)NC(=O)CCCCCNC(=O)CN1CCN(CC(=O)O)CCN(CC(=O)O)CCN(CC(=O)O)CC1)C(=O)O [copper-64 labelled] | ex vivo biodistribution | BALB/c nude mice, muscle | intravenous, dose not given, 18 h, Huh-7 tumour-bearing | 0.55 %ID/g
CC[C@H](C)[C@H](NC(=O)[C@H](CCCNC(=N)N)NC(=O)[C@H](CCCCN)NC(=O)[C@H](Cc1ccc(O)cc1)NC(=O)[C@H](CC(=O)O)NC(=O)[C@H](C)NC(=O)CNC(=O)CCOCCOCCOCCNC(=O)CN1CCN(CC(=O)O)CCN(CC(=O)O)CCN(CC(=O)O)CC1)C(=O)N[C@H](C(=O)N[C@H](C(=O)N[C@@H](CCCCN)C(=O)N[C@H](C(=O)N[C@@H](CC(N)=O)C(N)=O)C(C)C)C(C)C)[C@@H](C)O [copper-64 labelled] | ex vivo gamma counting | C57BL/6J male mice, B16-F10 tumour, liver | intravenous, 1.85 MBq, 40 min | 4.75 ± 0.087 %ID/g
C[C@H](O)[C@@H](NC(=O)[C@H]1CCCN1C(=O)[C@@H](CCCCN)NC(=O)[C@@H](CO)NC(=O)[C@@H](Cc1ccc(O)cc1)NC(=O)[C@@H](CC(N)=O)NC(=O)CCOCCOCCOCCNC(=O)CN1CCN(CC(=O)O)CCN(CC(=O)O)CCN(CC(=O)O)CC1)C(=O)N[C@H](CC(=O)O)C(=O)N[C@H](CCCNC(=N)N)C(=O)N[C@H](CCC(N)=O)C(=O)N[C@H](Cc1ccc(O)cc1)C(=O)N[C@H](Cc1c[nH]cn1)C(=O)N[C@H](Cc1ccccc1)C(N)=O [gallium-68 labelled] |  | BALB/c nude mice U-87 MG tumour, bone | intravenous, 1.85 MBq, 2 h, radiolabelled | 0.14 ± 0.06 %ID/g
CC[C@H](C)[C@H](NC(=O)[C@@H](Cc1c[nH]c2ccccc12)NC(=O)[C@@H]1CCCN1C(=O)[C@H](CCCCN)NC(=O)[C@H](CCCCN)NC(=O)CCNC(=O)CCNC(=O)CN1CCN(CC(=O)O)CCN(CC(=O)O)CCN(CC(=O)O)CC1)C(=O)N[C@@H](C[Si](C)(C)C)C(=O)O [gallium-68 labelled] | ex vivo biodistribution | nude mice, HT-29 xenograft, brain | 90 min, added: levocabastine 0.5 µmol | 0.05 ± 0.01 %ID/g
CCCC[C@H]1C(=O)N(C)[C@@H](CCCC)C(=O)N[C@@H](CCCNC(=O)CN2CCN(CC(=O)O)CCN(CC(=O)O)CCN(CC(=O)O)CC2)C(=O)N[C@H](C(=O)NCC(N)=O)CSCC(=O)N[C@@H](Cc2ccc(O)cc2)C(=O)N(C)[C@@H](C)C(=O)N[C@@H](CC(N)=O)C(=O)N2CCC[C@H]2C(=O)N[C@@H](Cc2c[nH]cn2)C(=O)N[C@@H](CC(C)C)C(=O)N(C)CC(=O)N[C@@H](Cc2c[nH]c3ccccc23)C(=O)N[C@@H](CO)C(=O)N[C@@H](Cc2c[nH]c3ccccc23)C(=O)N1C [gallium-68 labelled] |  | NOD/SCID mice with CHO-hPD-L1 xenograft, lung | 30 min post injection | 6.85 ± 0.74 %ID/g
CC(C)C[C@@H](NC(=O)[C@@H](CCCNC(=N)N)NC(=O)[C@@H](Cc1c[nH]cn1)NC(=O)[C@@H](Cc1c[nH]c2ccccc12)NC(=O)[C@@H](Cc1c[nH]cn1)NC(=O)[C@@H](Cc1ccccc1)NC(=O)[C@H](NC(=O)[C@@H](Cc1ccc(O)cc1)NC(=O)CNC(=O)CNC(=O)CCOCCOCCOCCNC(=O)CN1CCN(CC(=O)O)CCN(CC(=O)O)CC1)[C@H](C)O)C(=O)N[C@H](CC(N)=O)C(=O)N1CCC[C@@H]1C(=O)O [gallium-68 labelled] |  | C57BL/6 mice, male, blood | intravenous, 1.85 MBq, 60 min, added: blocking antibody | 0.94 ± 0.34 %ID/g
